{"data": "Measured values gathered from unrelated publications", "note": "Parts stem from different laboratories: compare values within a part only. Several values in a cell are separate wells, animals, samples, runs or records.", "chain of UniProt P53355 (whole entry, looked up)": "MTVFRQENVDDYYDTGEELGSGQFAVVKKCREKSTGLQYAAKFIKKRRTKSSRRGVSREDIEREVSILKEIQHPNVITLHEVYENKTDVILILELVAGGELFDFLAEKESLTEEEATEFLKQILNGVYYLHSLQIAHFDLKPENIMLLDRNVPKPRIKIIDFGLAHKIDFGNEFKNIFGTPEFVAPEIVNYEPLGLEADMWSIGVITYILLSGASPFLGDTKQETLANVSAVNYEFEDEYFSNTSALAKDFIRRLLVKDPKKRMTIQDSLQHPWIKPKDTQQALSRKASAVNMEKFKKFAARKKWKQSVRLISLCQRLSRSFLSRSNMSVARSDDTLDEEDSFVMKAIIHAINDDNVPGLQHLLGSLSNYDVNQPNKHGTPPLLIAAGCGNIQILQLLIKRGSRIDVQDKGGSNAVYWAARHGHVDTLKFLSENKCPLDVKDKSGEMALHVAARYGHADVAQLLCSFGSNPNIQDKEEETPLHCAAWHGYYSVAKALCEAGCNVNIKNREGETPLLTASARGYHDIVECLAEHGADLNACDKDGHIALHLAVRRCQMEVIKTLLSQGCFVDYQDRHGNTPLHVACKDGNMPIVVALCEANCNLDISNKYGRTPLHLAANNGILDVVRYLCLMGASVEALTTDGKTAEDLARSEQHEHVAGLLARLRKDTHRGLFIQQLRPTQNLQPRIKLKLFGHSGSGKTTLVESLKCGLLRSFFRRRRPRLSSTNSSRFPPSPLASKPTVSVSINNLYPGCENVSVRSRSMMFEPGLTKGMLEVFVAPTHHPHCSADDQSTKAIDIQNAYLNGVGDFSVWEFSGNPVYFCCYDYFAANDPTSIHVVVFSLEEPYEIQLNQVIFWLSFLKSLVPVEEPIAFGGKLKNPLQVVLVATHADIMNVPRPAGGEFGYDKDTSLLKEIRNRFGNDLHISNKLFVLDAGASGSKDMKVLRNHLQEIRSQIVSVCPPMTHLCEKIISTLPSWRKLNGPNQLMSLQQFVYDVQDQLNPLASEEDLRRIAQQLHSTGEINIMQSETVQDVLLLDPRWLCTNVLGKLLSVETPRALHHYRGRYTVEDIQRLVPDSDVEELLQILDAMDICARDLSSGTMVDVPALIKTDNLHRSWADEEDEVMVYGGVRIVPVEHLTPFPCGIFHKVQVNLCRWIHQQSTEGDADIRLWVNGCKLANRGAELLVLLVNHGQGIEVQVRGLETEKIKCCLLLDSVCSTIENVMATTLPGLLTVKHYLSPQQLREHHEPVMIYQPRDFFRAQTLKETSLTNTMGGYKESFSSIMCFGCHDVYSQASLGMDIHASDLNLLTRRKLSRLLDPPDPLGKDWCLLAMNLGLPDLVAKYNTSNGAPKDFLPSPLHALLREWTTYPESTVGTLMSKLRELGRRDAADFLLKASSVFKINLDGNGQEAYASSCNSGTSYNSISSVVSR", "chain of UniProt Q02763 (whole entry, looked up)": "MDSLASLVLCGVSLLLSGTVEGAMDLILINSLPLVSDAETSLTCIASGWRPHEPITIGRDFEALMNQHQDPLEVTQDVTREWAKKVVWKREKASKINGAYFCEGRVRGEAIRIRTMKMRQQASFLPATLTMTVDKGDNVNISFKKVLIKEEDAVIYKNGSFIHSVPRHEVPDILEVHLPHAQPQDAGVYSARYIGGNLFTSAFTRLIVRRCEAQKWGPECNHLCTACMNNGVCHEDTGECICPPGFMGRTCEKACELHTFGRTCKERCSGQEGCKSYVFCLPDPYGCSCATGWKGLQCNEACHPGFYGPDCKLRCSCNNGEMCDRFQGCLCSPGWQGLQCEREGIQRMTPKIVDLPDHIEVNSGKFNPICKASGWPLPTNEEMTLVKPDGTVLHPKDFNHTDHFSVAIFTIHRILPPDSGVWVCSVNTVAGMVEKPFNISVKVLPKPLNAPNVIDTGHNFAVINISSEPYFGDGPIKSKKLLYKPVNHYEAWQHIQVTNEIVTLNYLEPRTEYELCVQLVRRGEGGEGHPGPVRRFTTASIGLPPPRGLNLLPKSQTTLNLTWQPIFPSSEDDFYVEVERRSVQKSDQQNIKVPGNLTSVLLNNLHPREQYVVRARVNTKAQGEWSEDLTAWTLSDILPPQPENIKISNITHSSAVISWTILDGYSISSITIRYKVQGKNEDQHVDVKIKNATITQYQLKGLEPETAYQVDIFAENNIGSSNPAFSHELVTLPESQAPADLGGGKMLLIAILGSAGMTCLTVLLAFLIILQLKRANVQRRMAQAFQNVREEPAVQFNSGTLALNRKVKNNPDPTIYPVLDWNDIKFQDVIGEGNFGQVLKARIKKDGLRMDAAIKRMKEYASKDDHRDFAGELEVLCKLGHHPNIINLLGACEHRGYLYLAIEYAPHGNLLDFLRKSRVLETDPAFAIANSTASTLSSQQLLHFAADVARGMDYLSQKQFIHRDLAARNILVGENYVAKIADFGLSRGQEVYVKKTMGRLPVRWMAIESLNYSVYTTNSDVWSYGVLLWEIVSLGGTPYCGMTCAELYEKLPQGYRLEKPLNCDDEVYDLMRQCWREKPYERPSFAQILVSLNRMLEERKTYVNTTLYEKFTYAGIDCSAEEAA", "chain of UniProt Q16659 (whole entry, looked up)": "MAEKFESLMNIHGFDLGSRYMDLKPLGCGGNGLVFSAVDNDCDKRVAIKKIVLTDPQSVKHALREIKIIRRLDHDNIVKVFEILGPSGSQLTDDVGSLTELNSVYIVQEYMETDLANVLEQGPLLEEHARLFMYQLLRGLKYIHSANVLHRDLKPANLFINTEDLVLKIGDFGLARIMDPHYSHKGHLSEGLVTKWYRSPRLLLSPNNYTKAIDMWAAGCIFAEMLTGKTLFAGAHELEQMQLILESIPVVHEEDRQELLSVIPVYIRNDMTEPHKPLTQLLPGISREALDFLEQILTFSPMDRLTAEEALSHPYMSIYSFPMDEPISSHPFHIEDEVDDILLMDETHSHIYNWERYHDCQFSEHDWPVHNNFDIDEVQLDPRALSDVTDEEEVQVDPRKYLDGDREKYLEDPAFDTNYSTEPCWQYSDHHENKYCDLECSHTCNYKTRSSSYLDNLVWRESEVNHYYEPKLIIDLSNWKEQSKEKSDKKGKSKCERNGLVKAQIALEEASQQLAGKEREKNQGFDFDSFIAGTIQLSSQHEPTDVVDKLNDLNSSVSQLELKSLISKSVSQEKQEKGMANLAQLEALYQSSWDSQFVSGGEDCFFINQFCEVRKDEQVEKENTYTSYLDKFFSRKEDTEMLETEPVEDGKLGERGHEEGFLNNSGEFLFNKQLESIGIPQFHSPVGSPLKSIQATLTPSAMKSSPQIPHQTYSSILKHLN", "chain of UniProt O15197 (whole entry, looked up)": "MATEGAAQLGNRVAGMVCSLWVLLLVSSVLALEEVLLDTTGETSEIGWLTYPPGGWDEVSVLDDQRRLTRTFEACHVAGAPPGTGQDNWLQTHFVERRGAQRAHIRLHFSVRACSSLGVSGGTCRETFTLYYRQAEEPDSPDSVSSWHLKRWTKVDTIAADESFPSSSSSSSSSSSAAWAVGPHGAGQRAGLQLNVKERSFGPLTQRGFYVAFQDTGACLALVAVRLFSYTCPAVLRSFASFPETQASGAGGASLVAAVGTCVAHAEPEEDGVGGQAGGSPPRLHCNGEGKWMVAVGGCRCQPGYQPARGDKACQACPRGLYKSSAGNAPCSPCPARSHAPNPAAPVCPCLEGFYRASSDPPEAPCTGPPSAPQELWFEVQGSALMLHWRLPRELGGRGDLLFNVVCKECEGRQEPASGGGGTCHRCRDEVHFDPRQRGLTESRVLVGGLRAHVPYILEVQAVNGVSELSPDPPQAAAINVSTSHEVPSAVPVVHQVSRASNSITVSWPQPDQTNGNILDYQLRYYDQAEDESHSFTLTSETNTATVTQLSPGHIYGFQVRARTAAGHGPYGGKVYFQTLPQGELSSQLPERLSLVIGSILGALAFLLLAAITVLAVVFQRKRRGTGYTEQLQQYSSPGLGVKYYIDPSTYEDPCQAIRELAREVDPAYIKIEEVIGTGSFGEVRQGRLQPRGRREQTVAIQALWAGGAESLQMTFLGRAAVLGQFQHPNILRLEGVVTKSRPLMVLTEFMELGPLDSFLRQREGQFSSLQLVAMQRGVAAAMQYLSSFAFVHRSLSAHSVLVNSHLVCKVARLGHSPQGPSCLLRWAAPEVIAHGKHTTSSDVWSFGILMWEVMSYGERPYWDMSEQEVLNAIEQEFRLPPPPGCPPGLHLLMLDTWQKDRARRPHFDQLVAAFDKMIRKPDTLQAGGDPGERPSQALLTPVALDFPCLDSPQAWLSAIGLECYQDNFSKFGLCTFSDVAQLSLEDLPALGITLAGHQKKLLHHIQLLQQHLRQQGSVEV", "chain of UniProt P21127 (whole entry, looked up)": "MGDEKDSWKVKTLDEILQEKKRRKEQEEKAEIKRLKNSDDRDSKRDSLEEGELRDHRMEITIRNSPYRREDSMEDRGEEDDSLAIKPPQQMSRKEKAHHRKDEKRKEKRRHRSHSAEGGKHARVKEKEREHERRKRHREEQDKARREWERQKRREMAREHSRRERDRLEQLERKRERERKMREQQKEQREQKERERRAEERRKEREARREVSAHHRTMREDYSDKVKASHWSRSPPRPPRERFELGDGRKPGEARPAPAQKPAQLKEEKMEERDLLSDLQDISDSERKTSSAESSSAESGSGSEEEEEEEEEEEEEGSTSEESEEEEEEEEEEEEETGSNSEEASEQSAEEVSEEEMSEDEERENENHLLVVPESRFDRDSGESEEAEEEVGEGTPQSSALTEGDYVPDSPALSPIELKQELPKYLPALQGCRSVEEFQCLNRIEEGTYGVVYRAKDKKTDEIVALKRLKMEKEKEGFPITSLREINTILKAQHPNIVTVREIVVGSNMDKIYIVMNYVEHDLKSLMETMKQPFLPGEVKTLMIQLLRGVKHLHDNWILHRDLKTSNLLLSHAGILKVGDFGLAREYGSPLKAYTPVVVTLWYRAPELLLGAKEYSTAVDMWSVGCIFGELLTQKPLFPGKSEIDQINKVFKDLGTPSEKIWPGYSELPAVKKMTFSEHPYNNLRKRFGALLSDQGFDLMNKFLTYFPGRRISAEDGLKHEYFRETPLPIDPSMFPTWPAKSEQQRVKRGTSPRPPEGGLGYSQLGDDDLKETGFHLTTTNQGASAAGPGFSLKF"}
{"data": "Series 1", "target": "TAR DNA-binding protein 43, full length, His tag (TARDBP, Homo sapiens, UniProt Q13148, residues 1-414)", "method": "RNA Bind-n-Seq", "molecule type": "RNA", "matrix": "in vitro", "tested at": "20 nM", "setting": "6-mer, flanks averaged, single round", "with": "150 mM LiCl", "reference": "input library", "reading": "higher = stronger binding"}
{"Oligonucleotide": "CCUUGU", "6-mer enrichment (R)": 1.16}
{"Oligonucleotide": "CAUUCG", "6-mer enrichment (R)": 0.812}
{"Oligonucleotide": "AUUCAG", "6-mer enrichment (R)": 0.869}
{"Oligonucleotide": "CACCCG", "6-mer enrichment (R)": 1.03}
{"Oligonucleotide": "GUCUAG", "6-mer enrichment (R)": 0.927}
{"Oligonucleotide": "AUUGCC", "6-mer enrichment (R)": 0.95}
{"Oligonucleotide": "CUAUCC", "6-mer enrichment (R)": 0.876}
{"Oligonucleotide": "GAUGAU", "6-mer enrichment (R)": 0.971}
{"data": "Series 2", "Compound": "Cc1c(NC(=O)c2cc(C(N)=O)nc3cc(F)ccc23)c(C(F)(F)F)nn1Cc1ccc(C(C)(C)C)cc1", "effect on": "cell-free assay", "method": "competition with immobilised ligand", "tested at": "1 µM"}
{"target": "Focal adhesion kinase 1 (PTK2, Homo sapiens, UniProt Q05397)", "remaining binding [%]": 100}
{"target": "Tyrosine-protein kinase ABL1, non-phosphorylated (ABL1, Homo sapiens, UniProt P00519, T315I)", "remaining binding [%]": 100}
{"target": "Mitogen-activated protein kinase kinase kinase 7 (MAP3K7, Homo sapiens, UniProt O43318)", "remaining binding [%]": 100}
{"target": "Angiopoietin-1 receptor (TEK, Homo sapiens, UniProt Q02763)", "remaining binding [%]": 94}
{"target": "Phosphatidylinositol 4,5-bisphosphate 3-kinase catalytic subunit alpha isoform (PIK3CA, Homo sapiens, UniProt P42336, E545K)", "remaining binding [%]": 100}
{"target": "cAMP-dependent protein kinase catalytic subunit beta (PRKACB, Homo sapiens, UniProt P22694)", "remaining binding [%]": 100}
{"target": "Serine/threonine-protein kinase PAK 5 (PAK5, Homo sapiens, UniProt Q9P286)", "remaining binding [%]": 100}
{"target": "Ankyrin repeat and protein kinase domain-containing protein 1 (ANKK1, Homo sapiens, UniProt Q8NFD2)", "remaining binding [%]": 100}
{"target": "Receptor-interacting serine/threonine-protein kinase 2 (RIPK2, Homo sapiens, UniProt O43353)", "remaining binding [%]": 93}
{"target": "Epidermal growth factor receptor (EGFR, Homo sapiens, UniProt P00533, G719C)", "remaining binding [%]": 71}
{"target": "Insulin-like growth factor 1 receptor (IGF1R, Homo sapiens, UniProt P08069)", "remaining binding [%]": 100}
{"target": "Casein kinase I isoform gamma-1 (CSNK1G1, Homo sapiens, UniProt Q9HCP0)", "remaining binding [%]": 100}
{"target": "Mitogen-activated protein kinase 6 (MAPK6, Homo sapiens, UniProt Q16659)", "remaining binding [%]": 79}
{"target": "Cyclin-dependent kinase 11B (CDK11B, Homo sapiens, UniProt P21127)", "remaining binding [%]": 100}
{"target": "Ephrin type-B receptor 6 (EPHB6, Homo sapiens, UniProt O15197)", "remaining binding [%]": 100}
{"target": "Cyclin-dependent kinase 9 (CDK9, Homo sapiens, UniProt P50750)", "remaining binding [%]": 100}
{"target": "Death-associated protein kinase 1 (DAPK1, Homo sapiens, UniProt P53355)", "remaining binding [%]": 100}
{"target": "Serine/threonine-protein kinase 35 (STK35, Homo sapiens, UniProt Q8TDR2)", "remaining binding [%]": 100}
{"data": "Series 3", "host": "human", "matrix": "microsomes or S9", "tested at": "2 µM", "time": "0.5 h"}
{"Compound": "NC(CCc1c(Cl)cccc1Cl)c1ccc(Cl)cc1Cl (stereo not drawn)", "remaining compound [%]": 62.7}
{"Compound": "CS(=O)(=O)C1=C(N)C(=O)N(c2ccccc2)C1c1ccccc1 (stereo not drawn)", "remaining compound [%]": 8.09}
{"Compound": "OCCN(CCO)c1ncnc2c1oc1ccc(Cl)cc12", "remaining compound [%]": 67.7}
{"data": "Single results of other studies", "B1": "ARF14 497-605 (Arabidopsis thaliana, UniProt Q9LQE8); chain SPTEIQSKQFSSTRTCTKVQMQGVTIGRAVDLSVLNGYDQLILELEKLFDLKGQLQARNQWEIAFTNNEEDKMLVGEDPWPEFCNMVKKIFIYSKEEVKNLKSRKSLSS"}
{"Molecule": "B1 (ARF14 497-605)", "target or system": "ARF22 498-598 (Arabidopsis thaliana, UniProt Q9C8N7)", "test": "two-hybrid", "scale": "reference: out of 2 tests, higher = firmer interaction", "measurement": "positive tests", "result": 0}
{"Molecule": "CO[C@H]1/C=C/O[C@@]2(C)Oc3c(C)c(O)c4c(O)c(c5c(nc6cc(C)ccn65)c4c3C2=O)NC(=O)/C(C)=C\\C=C\\[C@H](C)[C@H](O)[C@@H](C)[C@@H](O)[C@@H](C)[C@H](OC(C)=O)[C@@H]1C", "target or system": "HaCaT", "conditions": "100 µM, 36 h", "measurement": "viability", "result": "17.7%"}
{"Molecule": "CC(C)n1cnc(-c2ccc(F)cc2)c1-c1ncc(C(=O)Nc2ccc(N3CCN(C)CC3)cc2)[nH]1", "test": "phase 2a trial", "system": "idiopathic pulmonary fibrosis patients", "conditions": "30 mg once daily, adverse event grade 4", "measurement": "patients with constipation", "result": "0%"}
{"Molecule": "CC(C)C[C@@H]1NC(=O)[C@H](CC(C)C)NC(=O)[C@@H](C(C)C)NC(=O)[C@H](C(C)C)NC(=O)[C@H](C)NC(=O)[C@@H](CC(C)C)NC(=O)[C@H](C)NC1=O", "test": "PRP chromatography", "conditions": "linear fit, 1 mL", "measurement": "logD 1,9-decadiene/water", "result": "-1.33 log units"}
{"Molecule": "Ic1ccc(Nc2nc(NCCN3CCOCC3)nc(N3CCOCC3)n2)cc1", "target or system": "HEK293T ATF4-firefly luciferase reporter", "test": "integrated stress response, measured: ATF4", "conditions": "1 µM, without ISRIB", "scale": "reference: DMSO", "measurement": "reporter signal", "result": "101% and 107% and 120% and 94.3% and 121% and 94.4% and 91.9%"}
{"Molecule": "CC(=O)N[C@@H](Cc1c[nH]c2ccccc12)C(=O)N[C@@H](CCC(=O)C=[N+]=[N-])C(=O)OC(C)C", "test": "measured: 5-methyl-2'-deoxycytidine", "system": "mouse, EL4 tumour-bearing, EL4 tumour", "conditions": "dose not given", "scale": "reference: vehicle", "measurement": "log2 fold change", "result": 0.409}
{"Molecule": "CC(C)C[C@@H]1NC(=O)[C@H](C)NC(=O)[C@H](C(C)C)NC(=O)[C@H](C)NC(=O)[C@H](C)NC(=O)[C@H](CC(C)C)NC(=O)[C@H](CC(C)C)NC1=O", "test": "PRP chromatography", "conditions": "linear fit, 1 mL", "measurement": "logD 1,9-decadiene/water", "result": "-2.32 log units"}
{"note": "For quick reference, copied from above (series 2):"}
{"target": "Epidermal growth factor receptor (EGFR, Homo sapiens, UniProt P00533, G719C)", "remaining binding [%]": 71}
{"target": "Insulin-like growth factor 1 receptor (IGF1R, Homo sapiens, UniProt P08069)", "remaining binding [%]": 100}
{"target": "Casein kinase I isoform gamma-1 (CSNK1G1, Homo sapiens, UniProt Q9HCP0)", "remaining binding [%]": 100}
{"target": "Mitogen-activated protein kinase 6 (MAPK6, Homo sapiens, UniProt Q16659)", "remaining binding [%]": 79}
{"target": "Cyclin-dependent kinase 11B (CDK11B, Homo sapiens, UniProt P21127)", "remaining binding [%]": 100}
{"target": "Ephrin type-B receptor 6 (EPHB6, Homo sapiens, UniProt O15197)", "remaining binding [%]": 100}
